Assay results pooled from the literature.
Lines come from different studies, so protocols differ. “And” joins repeats or separate records; there may be more than shown.

O=C(Nc1ccc2[nH]nc(-c3ccncc3)c2c1)[C@@H]1CCN(CC(=O)N2CCN(c3ccc(-c4ncccn4)cc3)CC2)C1 — PI-positive cells (HCT116; IncuCyte; concentration not given, 40 (unit not given)): 15.3 count and 14.2 count and 17 count
CN1CCN(C2(CNC3CCN(c4cccc(-c5cc6cc(F)ccc6[nH]5)c4)CC3)CCC2)CC1 — GI50 (SK-MEL-5): 1.71 µM
CC[C@H](C)[C@H](NC(=O)CNC(=O)[C@@H](N)CCCCN)C(=O)N[C@@H](CC(C)C)C(=O)N[C@@H](CCCCN)C(=O)N[C@@H](CCCNC(=N)N)C(=O)N[C@@H](CCC(=O)O)C(=O)N[C@@H](CCCCN)C(=O)N[C@@H](CCCNC(=N)N)C(=O)N[C@@H](CC(C)C)C(=O)N[C@@H](CCCNC(=N)N)C(=O)N[C@@H](CCCNC(=N)N)C(=O)N[C@@H](CCCCN)C(=O)N[C@@H](CC(N)=O)C(=O)N[C@H](C(=O)N[C@@H](Cc1c[nH]cn1)C(=O)N[C@@H](Cc1c[nH]c2ccccc12)C(=O)N1CCC[C@H]1C(=O)N[C@@H](CCC(=O)O)C(=O)N[C@@H](CCC(=O)O)C(=O)NCC(=O)N[C@@H](CCCCN)C(=O)N[C@@H](CC(C)C)C(=O)N[C@@H](CCCNC(=N)N)C(=O)N[C@@H](CCC(=O)O)C(=O)N[C@@H](Cc1ccccc1)C(=O)N[C@@H](Cc1ccccc1)C(=O)N[C@@H](Cc1ccccc1)C(=O)N[C@@H](Cc1ccccc1)C(=O)N[C@@H](CCC(=O)O)C(=O)N[C@@H](CC(C)C)C(=O)N[C@@H](CC(=O)O)C(=O)N[C@@H](CCC(=O)O)C(=O)N[C@@H](C)C(=O)N[C@@H](CCC(=O)O)C(=O)N[C@@H](CCCNC(=N)N)C(=O)N[C@H](C(=O)N[C@@H](CC(N)=O)C(=O)N[C@H](C(=O)O)C(C)C)C(C)C)C(C)C — log2 fold change (HeLa (mitotic); protein phosphorylation, TMT phosphoproteomics, measured: histone H3.1t Ser29; cell lysate; concentration not given, 15 min; reference: treated over control): 2.66
COc1cc(CCC[P+](c2ccccc2)(c2ccccc2)c2ccccc2)c(OC)c2c1OCO2.[I-] — TGI (SN12C; SRB): -4.98 log M
COc1cc(C(=O)c2c[nH]c3cc(-c4cccc(O)c4)ccc23)cc(OC)c1OC — wound confluence (MDA-MB-231; scratch; 200 nM, 72 h): ~0%
O=C(Oc1ccccc1)[c-]1cccc1.[Fe+2].c1cc[cH-]c1 — antiproliferative activity (MCF-10A; MTT; concentration not given, 72 h): inactive
COc1c(CCC[P+](c2ccccc2)(c2ccccc2)c2ccccc2)cc2c(c1OC)OCO2.[I-] — TGI (HOP-92; SRB): -5.31 log M
COc1c(C)c2c(c(O)c1C/C=C(\C)CCC(=O)O)C(=O)OC2 — IC50 (SK-MEL-5; cell proliferation; skin cancer): 0.851 µM
Oc1cc(Cl)ccc1Oc1ccc(Cl)cc1Cl — point of departure (HepG2; extracellular flux, measured: reserve respiratory capacity; 24 h, distribution mode 2): 1.23 µM
CCOC(=O)c1ccc(N2C(N)=C(C#N)C3(C(=O)Nc4ccccc43)C(C#N)=C2O)cc1 (stereo not shown) — mRNA fold change (Caco-2; qRT-PCR, measured: Bcl-2; IC50; reference: untreated): 0.194
C/C=C(/C)C(=O)O[C@H]1C(C)=C2[C@H]([C@@H]1OC(=O)CCCCCCC)[C@@](C)(OC(C)=O)C[C@H](OC(=O)CCC)[C@@]1(O)[C@H]2OC(=O)[C@@]1(C)O — log2 fold change (HEK293T; RNA-seq, measured: ATF3 mRNA; 10 µM, 6 h; reference: vehicle): 2.71
Nc1ncnc2c1ncn2[C@@H]1O[C@@H]2COP(=O)(O)O[C@H]3[C@@H](O)[C@H](n4cnc5c(=O)[nH]cnc54)O[C@@H]3COP(=O)(O)O[C@H]2[C@H]1O — pathway fold enrichment (HFF-1; RNA sequencing, measured: Muscle contraction; downregulated pathway; reference: Zika virus alone): 4.73
Oc1ccc(C(c2ccc(O)cc2)(C(F)(F)F)C(F)(F)F)cc1 — spheroid area increase (HepG2 spheroids; planimetry; 2.5 µM, 0 to 24 h; reference: mean area of 72 h spheroids): 126%
O=C1CCP(=[Se])(c2ccccc2)CC1 — selectivity index (HCT-116; MTT; 72 h; reference: IC50 HaCaT over IC50 HCT-116): 1
O=C1N(Cc2ccccc2Cl)c2ccccc2C12NN=C(c1ccccc1)S2 (stereo not shown) — fold change (MDA-MB-468; gene expression array, measured: CCNA2 mRNA; 10 µM, 12 h; reference: untreated, down): 1.59
CC(C)N1CCC(NC2CCN(c3cccc(-c4cc5cc(F)ccc5[nH]4)c3)CC2)CC1 — CC50 (HOP-92): 6.83 µM
COc1cc2c(Oc3ccc4[nH]c(C)cc4c3F)ccnc2cc1OCC1(N)CC1 — Epistaxis incidence (paediatric recurrent refractory sarcoma; 8 mg): 0%
COc1ccc2c(c1)[nH]c1c(C)nccc12 — methylation reduction (DU-145; bisulfite pyrosequencing, measured: RASSF1A promoter CpG site 17; concentration not given; reference: vehicle): 1.9%
CCC(=O)CCCCC[C@@H]1NC(=O)[C@H]2CCCCN2C(=O)[C@H]([C@@H](C)CC)NC(=O)[C@H](Cc2cn(OC)c3ccccc23)NC1=O — viability (OCI-Ly1; 0.1 µM, 120 h): 96.7%

A few entries again:
CN1CCN(C2(CNC3CCN(c4cccc(-c5cc6cc(F)ccc6[nH]5)c4)CC3)CCC2)CC1 — GI50 (SK-MEL-5): 1.71 µM
O=C(Oc1ccccc1)[c-]1cccc1.[Fe+2].c1cc[cH-]c1 — antiproliferative activity (MCF-10A; MTT; concentration not given, 72 h): inactive
Nc1ncnc2c1ncn2[C@@H]1O[C@@H]2COP(=O)(O)O[C@H]3[C@@H](O)[C@H](n4cnc5c(=O)[nH]cnc54)O[C@@H]3COP(=O)(O)O[C@H]2[C@H]1O — pathway fold enrichment (HFF-1; RNA sequencing, measured: Muscle contraction; downregulated pathway; reference: Zika virus alone): 4.73
